Measurements from different studies.
Each numbered part is a random draw from the data of one study; scales do not carry over between parts. Substitutions count along the parent as printed.

Block 1
Target: RING finger protein unkempt homolog, zinc fingers 1-6, GST-SBP tag (UNK, Homo sapiens, UniProt Q9C0B0, residues 30-357)
Technique: RNA Bind-n-Seq
Molecule type: RNA
Medium: in vitro
Concentration: not given
Notes: RNA with constant flanks, ends assumed
Reference: input RNA pool
Reading: higher = stronger binding
Target sequence (chain): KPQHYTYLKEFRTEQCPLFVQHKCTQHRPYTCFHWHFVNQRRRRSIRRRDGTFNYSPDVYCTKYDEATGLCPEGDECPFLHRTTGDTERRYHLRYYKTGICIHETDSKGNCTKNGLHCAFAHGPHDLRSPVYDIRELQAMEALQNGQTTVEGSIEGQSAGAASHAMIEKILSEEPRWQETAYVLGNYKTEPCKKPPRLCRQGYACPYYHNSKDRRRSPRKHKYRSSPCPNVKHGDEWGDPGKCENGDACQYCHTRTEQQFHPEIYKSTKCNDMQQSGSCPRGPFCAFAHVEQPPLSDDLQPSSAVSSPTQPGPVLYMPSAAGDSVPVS
Strand | bound/input enrichment
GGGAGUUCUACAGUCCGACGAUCGCGGUGGUGGUGGAGAAGGACGCAGUGUUUAUUCCAGCAGGGUGGGAUAAUGAUAAGAAAACCGGAAUAUUACAUGAAAAUUUUCAGACUUUGAAAGUAGAAGAUAAUUUUGAAGACAUCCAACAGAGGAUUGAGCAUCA | 1.27 ratio
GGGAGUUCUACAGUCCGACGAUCAUGACUCUGCUGUUCUAAGCCUCCCAUGGUUCUCUUGUAACUGUGUUGGCUUGCUUUAAAACCGAGCAAGCCUAGGGCUGGUGAGAUGGCUCAGUGGGUAAGAGCACCCGACUGCUCUUCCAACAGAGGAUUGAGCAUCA | 0.0751 ratio
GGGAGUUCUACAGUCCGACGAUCCUCUUCUUGAAUUCUACCGCAGGGACAAGUGGAGGAGCUUAUGAUCAUAGCUAUGCCGAGCUCUUUUUGAAUUCUACAGCAGGGGCAAGUGGUGGUGCUUACGGUAGCCAGAUGAUGGGACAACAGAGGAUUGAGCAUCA | 0.507 ratio
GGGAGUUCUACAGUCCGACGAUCAAAUUCUACAAACAAGUUAUUGAUAAAGGCCAAACAAUUCCAGAGGAUAUCUUAGGAAAGACCGCAGUUUCUAUUGUAAAAGCGUUAGAACAUUUACACAGUAAGCUGUCUGUUAUCCAUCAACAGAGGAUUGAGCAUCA | 0.299 ratio
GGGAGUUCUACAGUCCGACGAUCGAUCUCGUCUGAGCAUCUCUAGUGACCUUCUCUGCAUUAACUGUCAGUGCUACGGAUAUUUUCCGCUCCAAGUCCUGGCAGGGUGGGGCACCUAUCUGAGGCAGGGUUUGGUGCCCCCUCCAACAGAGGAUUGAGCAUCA | 0.163 ratio
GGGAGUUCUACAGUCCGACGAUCUGUGGCUGAGGACUUUGUACAUUGUUUUGUUUUUUUUUUUUUUUGGUUUUGUCUUUUUUUAACCGUCAUUCCAAGUAUCCAUGAAAUAAGUGGUUACAGGAAGUCCCUCACCCUCCCAAACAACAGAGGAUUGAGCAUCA | 1.52 ratio
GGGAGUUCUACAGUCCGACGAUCUUCUCCACUUUUUAUUGAUGAUUUAAAACACUCUAGUCUUCCCCUCAAAUCAUGCAUGCAAACCGGAGGACAGUGGUGGUGACUCAACUGGAUACAGGUGCUCAAUAGUCAGGCUUGAUACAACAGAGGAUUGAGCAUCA | 0.338 ratio
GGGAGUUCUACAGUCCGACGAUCUUUCUUAUUUUGAUAUUUUUUUAAUGUUGUGGAUGAAUGCCAGCUUUCAGACAGAGCCCACUCCGCUUGUCCACAUGGAUCUCAAUGCCAAUCCUCCAUUCUUCCUCUCCAGAUAUUUUUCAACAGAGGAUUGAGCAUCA | 2.63 ratio

Block 2
Target: CCNB1, cyclin fold, Cln2 fusion (human)
Technique: yeast growth competition, sequencing
Medium: yeast
Notes: weak parent motif
Reference: not given
Reading: higher = stronger binding
Starting sequence: CABLES2 docking peptide (human); ICAKRSLCAAFSV
Change | normalised enrichment score
S12A | 0.403
V13A | 0.359
S6A | 0.371
C8A | 0.0423
K4A | -0.0548

Block 3
Target: CREB3L1, bZIP domain (human)
Technique: DHFR protein complementation
Medium: yeast
Notes: single substitutions, most at no-binding floor
Reference: wild-type JUN-FOS pair
Reading: higher = stronger binding
Starting sequence: JUN, bZIP domain (human); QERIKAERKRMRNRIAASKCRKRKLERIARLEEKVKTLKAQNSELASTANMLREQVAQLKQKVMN; partner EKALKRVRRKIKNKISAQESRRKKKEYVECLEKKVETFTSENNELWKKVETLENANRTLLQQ
Change | binding fitness
L45F | -1.31 natural log
Q41P | -1.54 natural log
V35G | -1.48 natural log
L38Y | -1.52 natural log
M51E | -1.44 natural log
A49Q | -1.48 natural log
R53K | -1.5 natural log
K34P | -1.52 natural log
S43C | -1.51 natural log
T48D | -1.49 natural log
L31M | -1.49 natural log
V56A | -1.45 natural log
V56F | -1.52 natural log

Mixed results
Substance | target | test | test system | setting | how to read | quantity | value
PhoQ, residues 284 288 289 292 302 303 TGYLSA | PhoP, residues 12 14 15 18 19 SYFRT (Escherichia coli, UniProt P23836) | Sort-seq, refers to: YFP reporter | E. coli | PhoQ-PhoP variant library, with: 10 µM Mg2+ | reference: high Mg2+ state, higher = stronger signaling | fold induction | 13.7

A few entries again (block 3):
Change | binding fitness
L31M | -1.49 natural log
V56F | -1.52 natural log
L45F | -1.31 natural log
